Assay results from different studies.
Every numbered part comes from another study and shows a few of its results, in no order. Positions count from the first letter of the parent shown.

Sample 1
Target: RING finger protein unkempt homolog, zinc fingers 1-6, GST-SBP tag (UNK, Homo sapiens, UniProt Q9C0B0, residues 30-357)
Method: RNA Bind-n-Seq
Molecule type: RNA
Sample: in vitro
Concentration: not given
Setting: RNA with constant flanks, human and mouse sites, ends assumed
Reference: input RNA pool
Direction: higher = stronger binding
Target sequence (chain): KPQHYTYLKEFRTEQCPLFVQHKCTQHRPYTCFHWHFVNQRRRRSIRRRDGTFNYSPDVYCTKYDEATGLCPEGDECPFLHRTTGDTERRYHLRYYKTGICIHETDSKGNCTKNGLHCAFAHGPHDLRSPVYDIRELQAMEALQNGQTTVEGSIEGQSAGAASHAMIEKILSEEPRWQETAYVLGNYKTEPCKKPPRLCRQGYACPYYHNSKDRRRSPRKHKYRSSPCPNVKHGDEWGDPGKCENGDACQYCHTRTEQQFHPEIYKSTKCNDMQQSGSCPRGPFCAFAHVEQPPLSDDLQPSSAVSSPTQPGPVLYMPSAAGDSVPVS
`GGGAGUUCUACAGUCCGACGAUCCACUUGUAUGAAAUAUUCCCUGCAGAGUGAGCAGGAAAUAGGAACAAAGGAAUGGAAUGCUUAGUGGUGGUGGGGGUGCUAUGGGGGGUGGGUGGGAGAGUUGCAGACUUGAGGAGGUUUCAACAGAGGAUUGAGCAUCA` gave a bound/input enrichment of 0.661 ratio.
With `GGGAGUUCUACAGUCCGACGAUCCUGAAGGCUCUAGAGAGGCUUGAGGGUGUGGAGGGCGUGGCCCACAUAAUUGACCCCAAGGCCAUCAGCAAAGACCACCUCUACGGAACCUUGGAUCCCAACACCAGGGAGUGGACAGACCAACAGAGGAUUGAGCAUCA` the bound/input enrichment was 0.174 ratio.
`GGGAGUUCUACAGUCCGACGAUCAAGAAAGACCAUAUUAAACUUACAUGUUUGAGGAUUGCGUCACCUUGUCUCCUGUACAAGCAGUUUCUCUGUUCGGUGAUCAAUGUCACUCACAGGAACUUAAGUAACUAACGAAAUGAGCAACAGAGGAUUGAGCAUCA` has a bound/input enrichment of 0.207 ratio.
For `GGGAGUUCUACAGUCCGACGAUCAGAUACUUGCAAAAUAGAUCUCGAAUUCAGGUGUGGCUGUAUGAACAAGUGAAUAUGCGGAUAGAAGGUUGUAUUAUUGGCUUUGAUGAGUACAUGAACCUCGUAUUAGAUGAUGCAGAACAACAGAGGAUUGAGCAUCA`, the bound/input enrichment was 0.726 ratio.
The bound/input enrichment of `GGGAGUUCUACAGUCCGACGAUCCGAAGUAAGAAAGCAAACCUAGGCAAGAAUGCAAGUGUGAAUGCGCACCAUGGACCAGCACUAGAAGCUGUGGAGACCACUGUGCCCAAGCAAGGACAAAACUUAUGGUUCCUGUGUGACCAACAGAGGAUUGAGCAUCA` is reported as 0.252 ratio.
The bound/input enrichment of `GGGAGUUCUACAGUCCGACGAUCGAUGGGGACCAAAGGCAUGAGGCUAAGUCCCCGAGUCCCAAAGAAAGCAAGAAGAGGAAGUUGGAGGGGAACAGGCAGGAGCAGGUCCCAGGGGAGCCAGAUCCUCAGGGUGUCUCUGAGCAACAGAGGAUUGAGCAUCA` is reported as 0.223 ratio.
`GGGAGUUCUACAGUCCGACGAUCGACAAAGAGGCUCUGACAGAGGAGAAGUGCCUCCCACGUCAGAACCGUUACGAUGGGCAGGUAGCUGUAUUUGGGUCAGACUUUCAGGAGAAGCUGAGCAAGCAAAAGUACUUCCUGGUGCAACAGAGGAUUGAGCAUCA` gave a bound/input enrichment of 0.0612 ratio.
For `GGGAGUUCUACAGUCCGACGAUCUUGAAGGGAAUCAUUAACAGCUUGUUACAAGAAUGGAAAGGUCCACGAACAAAAGAUGAUCUUAGAGCAUAUUUUAUACUGUUACAGAAUCCUCAAUUUAAUAUCACAUCUACAUAUGUCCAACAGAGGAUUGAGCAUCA`, the bound/input enrichment was 1.46 ratio.

Sample 2
Target: Sal-like protein 4, full length isoform A (SALL4, Homo sapiens, UniProt Q9UJQ4, residues 1-1053)
Sequence of UniProt Q9UJQ4 (whole entry, looked up): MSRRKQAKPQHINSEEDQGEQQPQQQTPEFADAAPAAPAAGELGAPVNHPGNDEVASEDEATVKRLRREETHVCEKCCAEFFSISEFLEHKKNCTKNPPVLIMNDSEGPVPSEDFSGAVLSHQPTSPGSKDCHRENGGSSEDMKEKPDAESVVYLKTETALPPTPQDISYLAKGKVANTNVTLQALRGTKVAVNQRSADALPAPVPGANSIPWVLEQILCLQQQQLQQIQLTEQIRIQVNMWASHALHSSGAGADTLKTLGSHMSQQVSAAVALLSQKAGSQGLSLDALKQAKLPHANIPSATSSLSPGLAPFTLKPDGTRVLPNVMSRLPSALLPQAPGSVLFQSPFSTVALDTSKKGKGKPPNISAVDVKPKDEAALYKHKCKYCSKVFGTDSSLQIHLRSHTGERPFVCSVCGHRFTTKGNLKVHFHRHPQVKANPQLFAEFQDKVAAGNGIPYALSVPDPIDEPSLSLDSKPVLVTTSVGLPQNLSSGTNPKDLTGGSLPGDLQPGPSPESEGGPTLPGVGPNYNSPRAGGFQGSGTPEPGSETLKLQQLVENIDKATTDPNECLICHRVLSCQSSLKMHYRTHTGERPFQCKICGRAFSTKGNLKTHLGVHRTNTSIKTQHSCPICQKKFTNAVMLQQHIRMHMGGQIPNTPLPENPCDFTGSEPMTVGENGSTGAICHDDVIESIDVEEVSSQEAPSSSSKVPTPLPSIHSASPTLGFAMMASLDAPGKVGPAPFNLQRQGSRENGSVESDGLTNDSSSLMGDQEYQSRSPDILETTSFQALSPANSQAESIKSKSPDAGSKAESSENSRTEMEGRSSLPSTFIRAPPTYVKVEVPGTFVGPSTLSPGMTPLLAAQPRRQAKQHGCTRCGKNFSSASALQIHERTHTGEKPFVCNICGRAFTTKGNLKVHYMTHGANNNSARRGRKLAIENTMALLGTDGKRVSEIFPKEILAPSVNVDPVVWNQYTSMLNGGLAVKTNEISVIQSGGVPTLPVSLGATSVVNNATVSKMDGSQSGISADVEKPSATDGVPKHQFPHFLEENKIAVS
Method: universal PBM
Molecule type: double-stranded DNA, one strand shown
Sample: in vitro
Concentration: 600 nM
Setting: 8-mer, flanks averaged, mean of replicates
Direction: higher = stronger binding
For `CTCTTTTA`, the E-score was 0.0544.
The E-score of `GGGCGTAC` is reported as -0.173.
For `TGAACTCA`, the E-score was 0.019.
With `AATTTCGA` the E-score was 0.157.
`ATAGTTGC` gave an E-score of 0.228.
`CTAGATGA` gave an E-score of 0.0462.
For `CTCTGTAC`, the E-score was 0.0328.
`TAACACCA` has an E-score of 0.17.
`AAGGCCGG` gave an E-score of -0.242.
The E-score of `AGGAAAAG` is reported as 0.196.
`CAAGCCCA` has an E-score of -0.172.
`CCGTCTAC` gave an E-score of -0.08.
`AGACTGAT` has an E-score of 0.0618.
`AACAGATT` gave an E-score of 0.117.
`CGCCTCGA` gave an E-score of -0.179.

Sample 3
Target: CCND1, cyclin fold, Cln2 fusion (human)
Method: yeast growth competition, sequencing
Sample: yeast
Setting: strong parent motif
Reference: not given
Direction: higher = stronger binding
Starting sequence: RBL2 docking peptide (human); STTRRRLFVENDS; partner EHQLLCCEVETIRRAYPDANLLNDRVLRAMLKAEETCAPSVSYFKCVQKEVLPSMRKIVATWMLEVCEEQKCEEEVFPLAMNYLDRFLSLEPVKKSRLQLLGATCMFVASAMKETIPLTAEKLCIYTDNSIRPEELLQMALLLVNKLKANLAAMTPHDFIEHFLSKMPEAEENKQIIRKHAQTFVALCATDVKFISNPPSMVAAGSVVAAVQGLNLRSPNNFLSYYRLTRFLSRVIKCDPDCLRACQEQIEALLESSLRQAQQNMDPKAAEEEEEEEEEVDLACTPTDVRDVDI
Under “normalised enrichment score”, `STTRRRSFVENDS [L7S]` is recorded as 0.783.
`STTRRRLFVEIDS [N11I]` — result for “normalised enrichment score”: -0.0245.
For `ETTRRRLFVENDS [S1E]`, “normalised enrichment score” read -0.0606.
`STTRRRLFVENGS [D12G]`: “normalised enrichment score” 0.234.
`STLRRRLFVENDS [T3L]`: “normalised enrichment score” -0.122.
For `STTRRRLFCENDS [V9C]`, “normalised enrichment score” read 1.47.

Mixed results
`PhoQ, residues 284 288 289 292 302 303 SQSLSM` gave a fold induction of 21.2 (PhoP, residues 12 14 15 18 19 NMSSL (Escherichia coli, UniProt P23836); Sort-seq, refers to: YFP reporter; E. coli; PhoQ-PhoP variant library, added: 10 µM Mg2+; reference: high Mg2+ state, higher = stronger signaling).
